Experimental data collected from several papers.
Parts stem from different laboratories: compare values within a part only.

Block 1
Target: Ras GTPase-activating protein-binding protein 1, C-terminal RGG region (G3BP1, Homo sapiens, UniProt Q13283)
UniProt Q13283, sequence (whole entry, looked up): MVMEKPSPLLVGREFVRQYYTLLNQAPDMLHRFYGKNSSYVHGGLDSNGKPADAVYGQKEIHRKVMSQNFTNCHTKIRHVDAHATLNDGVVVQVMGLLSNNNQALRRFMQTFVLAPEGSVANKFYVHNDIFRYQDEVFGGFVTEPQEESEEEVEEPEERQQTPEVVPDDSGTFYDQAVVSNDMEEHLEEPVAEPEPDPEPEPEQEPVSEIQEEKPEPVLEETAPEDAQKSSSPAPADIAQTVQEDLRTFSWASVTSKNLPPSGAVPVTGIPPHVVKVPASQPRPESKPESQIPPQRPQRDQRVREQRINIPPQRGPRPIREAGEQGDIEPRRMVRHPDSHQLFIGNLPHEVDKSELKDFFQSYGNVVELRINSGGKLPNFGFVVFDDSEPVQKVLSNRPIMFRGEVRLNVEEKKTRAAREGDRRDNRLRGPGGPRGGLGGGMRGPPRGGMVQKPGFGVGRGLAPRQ
Technique: RNA Bind-n-Seq
Form: RNA
Sample: in vitro
Concentration: 1 µM
Notes: whole 134-nt RNA, ends assumed
Together with: 150 mM KCl
Baseline: input library
Direction: higher = stronger binding
Quantity: log2 enrichment
All sequences stand within: GGGAGUUCUACAGUCCGACGAUC … UGGAAUUCUCGGGUGUCAAGG
CCUCAAGUCCUGUGCUACACAUCGUAUGUACCGAAUCGGUUUGGAAAGGUGGAAAGUAUUAUGUUACGCCGUUCGGAUCUGCACUUCCAG: -0.78
CACAGACAACACGCACCCACACAGACACAGAGGGAAGGGAAAGGGAUGGGGACAGGGUGCACAGCAGGGCGGGGUAGGACCCCAGCCCCU: -0.221
AGUCCUGUGCUACACAUCGUAUGUACCGAAUCGGGGAAAAAGGGGUGGGGAAAGGGGAAAGUAUUAUGUUACGCCGUUCGGAUCUGCACU: 1.69
GCAGGAAGUAAAAACAAAUGGAAAUGCUUCGGAUAGUGGCAGGGGUCGGGGUUGCUAAGGAAAGGGUGGGAUGGGAGUGGGUAAAGAGUU: 0.803
CACAGACAACAGGCACCCACACAGACACAGAGGGAAGGGGUUGGGAUGGGGACAGGGUGCACAGCAGGGCGGGGUAGGACCCCAGCCCCU: -0.135
UGGCCCUGGUGGCAUGCGGGGAGGAAGAGGUGGCCUCAUGUAUCGUGGUGGUCCCGGUGGAAUGUUCAGAGGUGGCCGUGGUGGAGACAG: 1.74
CCUGUGCUACACAUCGUAUGUACCGAAUCGGAAAAAAAGGGGAAAAAAAGGGAAAAAAAGGAAAGUAUUAUGUUACGCCGUUCGGAUCUG: -1.86
ACCAUGCAGGUGGGCAUCUCUGGGAAGUGGGGCAAGGGGGGGAUAGGGAGGGGGGUAACACUUUGGGAACAGGUGGUCCCAGGUCGUUUC: -0.752
CACAGACAACACGCACCCACACAGACACAGAGGGAAGGGUUUGGGAUGGGGACAGGGUGCACAGCAGGGCGGGGUAGGACCCCAGCCCCU: -0.471
UAACUUUAGAGGAGGAUCUGAUGGAUAUGGCAGUAGACGUGGAUUUGGGGAUGGCUAUAAUGGGUAUGGAGGAGGACCUGGAGGUGGCAA: -0.952
GUCCUGUGCUACACAUCGUAUGUACCGAAUCGGGGUUUUUGGGGUUUGGGGAAAGGGGAAAGUAUUAUGUUACGCCGUUCGGAUCUGCAC: 3.63
UAUCUUAUCUACACAUGGGGGACUGAAGAGUUCGAGAGAUCCAAGAGGAAGAAUCCAGCUGCCUAUGAAAAUGACAAAUGAGCAACGCAU: -1.51
UCCUGUGCUACACAUCGUAUGUACCGAAUCGGGGAAAGGGGAAAGGGGUUUUUUUGGGGAAAGUAUUAUGUUACGCCGUUCGGAUCUGCA: 2.59
CACUGACAACACGCACCCACACAGACACAGAGGGAAGGGGUUGGGAUGGGGACAGGGUGCACAGCAGGGCGGGGUAGGACCCCAGCCCCU: 0.271

Block 2
Target: Histone acetyltransferase KAT6A, winged helix 2, GST fusion (KAT6A, Homo sapiens, UniProt Q92794, residues 85-181)
Technique: protein binding microarray
Form: double-stranded DNA, one strand shown
Sample: in vitro
Concentration: not given
Notes: 8-mer, flanks averaged, mean of 2 arrays, mostly near background
Baseline: not given
Direction: higher = stronger binding
Quantity: E-score
Residues (chain): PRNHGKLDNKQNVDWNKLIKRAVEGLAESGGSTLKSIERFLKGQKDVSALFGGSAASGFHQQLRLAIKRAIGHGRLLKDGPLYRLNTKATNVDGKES
AGAGGATG: -0.163
GCGTAAAC: 0.118
ATCACTTA: -0.0422
CCAATCGA: -0.0918
AGTACGAT: -0.00302
CTATCTGA: 0.0369
CTTTGAGC: -0.0137
AGGTATCC: 0.0499
CAAATCGG: 0.0898
GGAAGGTA: -0.0555
CTTGTATC: -0.0516
CTCCTAGC: -0.00494
CGTAGTGC: 0.164
GGAAGCTA: 0.301
CATGTACC: -0.27
GAAGGGGA: 0.0458
ACTCTACC: -0.12
AAGTTTTA: -0.0476
AGCTCTGG: 0.0198
CCGCCTAA: 0.145
AGATATAA: 0.0478
AGAATATG: -0.0832
CTCGAAGC: 0.0433
ACGCTTTA: -0.0658
ACAGTGGA: -0.124

Block 3
Target: Centromere-binding protein 1, full length, His-tagged (CBF1, Saccharomyces cerevisiae, UniProt P17106, residues 1-351)
UniProt P17106, sequence (whole entry, looked up): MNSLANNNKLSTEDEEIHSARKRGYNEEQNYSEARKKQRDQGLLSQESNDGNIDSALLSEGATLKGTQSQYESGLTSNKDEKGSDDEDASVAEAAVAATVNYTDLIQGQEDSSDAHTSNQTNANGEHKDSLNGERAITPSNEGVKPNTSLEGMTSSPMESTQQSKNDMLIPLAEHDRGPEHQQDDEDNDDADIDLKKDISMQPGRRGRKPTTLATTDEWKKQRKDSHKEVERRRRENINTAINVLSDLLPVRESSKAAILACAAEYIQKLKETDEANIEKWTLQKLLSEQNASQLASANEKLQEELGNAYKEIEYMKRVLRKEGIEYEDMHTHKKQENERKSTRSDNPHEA
Technique: competition protein-binding microarray
Form: double-stranded DNA, one strand shown
Sample: in vitro
Concentration: 2 µM
Notes: whole 60-bp probe, lowest competitor level
Together with: Pho4 competitor, 0.05 µM
Direction: higher = stronger binding
Quantity: fluorescence intensity
All sequences stand within: … GTCTTGATTCGCTTGACGCTGCTG
TTGTAATGAGTTGGGCACATGGCGCAGTTGGTAGCG: 120 a.u.
GGTTCAAAATCCCGTCACGATGAAATAGAAAATGAA: 137 a.u.
GTCTTGTCTCATTGCGAGGTGGGTGTCCCCACTTCA: 88.3 a.u.
ATTAAGATCAATCGGCACGTGCTTTTTTCGAACATC: 2540 a.u.
TTGGTGTTTCAGGTATTCGTGCTAATCAACGTTACT: 68.8 a.u.
GCAATTGAGCTTTAGCACGTGCAATTAGGATGAAAA: 2290 a.u.
TGCGCAACAACTTGATACGTGGGTGTATGTCTAGAA: 65.5 a.u.
ATTCCAAACGTTACCCACGTTATCAACTACGATTTA: 121 a.u.
AAATTACTAAGTTGTTAAGTGGGTGACGCCGTATGA: 84.3 a.u.
CTTCTGTAAATTTGTCACGCCACTTGACGCGCCCCG: 316 a.u.
GTCTTGTCTCATTTTCACGTGTACTTCCCCACTTCA: 696 a.u.
CTAACGAAGGTTTTTCACGTGACTTACAAGCCAAGT: 7530 a.u.
CGTCCTAGCGATTGAATGGTGGGTGCCATGAGGAAG: 68 a.u.
CTTCTCTTTCCCACCACCGTGGGTATCCTTTTTCTT: 67 a.u.
CTTTCCCGATCTTGGCGAGTGGGTGTAGCACATTTG: 61.9 a.u.
CGTCCTAGTGATTGGATCGTGGGTGCCATGAGGAAG: 89.9 a.u.
CGGCTTACTTTGTAACGCGTGGTCGCCTATACACCG: 99.9 a.u.
CATGGAAGTTACCATCACCTGCATTACCAACAATGG: 112 a.u.
TGTCCCAATCTAACACACATGAGTCGTCGAACGCCA: 77.9 a.u.
TTTGGTCTTCGATCCCACGTGGCCAACAATATCTTC: 1100 a.u.
CGTCCTAGTGATTGTGTGGTGGGTGCCATGAGGAAG: 91.8 a.u.
CGTCCTAGTGATTGGCTTGTGGGTGCCATGAGGAAG: 81.7 a.u.

Block 4
Target: RNA binding protein fox-1 homolog 2, RRM domain, GST-SBP tag (RBFOX2, Homo sapiens, UniProt O43251-10, residues 100-194)
Technique: RNA Bind-n-Seq
Form: RNA
Sample: in vitro
Concentration: 365 nM
Notes: natural RNA segment, single round, ends assumed
Baseline: no-protein control
Direction: higher = stronger binding
Quantity: RBNS enrichment (R)
All sequences stand within: GGGAGUUCUACAGUCCGACGAUC … UGGAAUUCUCGGGUGCCAA
Residues (chain): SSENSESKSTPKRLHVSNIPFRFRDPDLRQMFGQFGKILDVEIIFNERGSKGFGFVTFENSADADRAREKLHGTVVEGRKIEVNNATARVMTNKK
CUUUCCAGUCCACGUGUGUAUAUAAUGAUAUCUAUAUUUUUGCCCAGGUCUGGGUAUUGCUCCUGCCCAGACCCUGACAUCCCUUUCCACUGUGUGUGUGACCAUGCUGG: 1.67
GAAUCUGUCCGUCUGUAAGGCGUAGAAUGAGGGUUGUUAAUCCAUCACAAGCAAAAGGUCAGAACAGUUAAACACUGCCUUUCCUCCUCCUCUUAUUUUAUGAUAAAAGC: 0.363
CCCCACCCUGUUUGGAUUUUUAAUUAAAAACUAGUAGUUCUCUUGGUGUUAAAACACUUCUGUCCUGUGAGGUUUCCCAAUGGUGUUUUUCUUGUAAAUGUGUUGGACAA: 0.739
GGGAUCAGCCCACUGACAGACCUUAAUCUUAAUUACUGCUGUGGCUAGAGAGUUUGAGGAUUGCUUUUUAAAAAAGACAGCAAACUUUUUUUUUUAUUUAAAAAAAGAUA: 0.707
CAGAGAGCUGCACCCUGCACGGGGCACCGCACCGCUUCCCUCCGCGCAGCUCUUCUGCCUGGUUUUCGGAGGCCAGGCUGCUGGGAAGCUUCCGUGUUCCUGUCAGUCCU: 1.08
UCCCGUUCUCUCAUGCCUUCGCCCUCCGCCCUCCGAGAUCCCUGAAGGAGGAAAGAGAUAAAGGUUAAAGUCCCAGAUCUGUGCCCUCCAGUAGGUUGGGCUGCUCAUUU: 0.386
AUAUUGCCCUGUGACUCCAGUAUAUCUCACCUGUACUGACCAAACCUAAAUAAACAUUUUUAUUACGCUCUUGUUUGUUUUUUCCUUUUGUCUUGGGUGUGUUUAGCAAU: 0.422
AUAAUGACAUUCUGUCACCCACCCUUUUGUACAUUUUUCACUUUUUGUUUGUUUCAUCUUUUUCAGUUGAAUAUUAAUACUAAUGGCCACGUCUGACAAAUGUGUGUAUG: 0.588
UUCGUUUAGGAUUAGUUGAGUUCCAGCUGGGUUUUGGGAGAAAGGAGAUGCUACCAAGUCUUGGAUGUUAGGGCGAGACCCUGCAAGUUGAGUAUUAGAGAGCUUGUCUU: 0.564
UGGACUUUGAUUUAGGGAUCAUGUUUUGGCCUGGAAAAUAAGCAUUGGCCUGCGUGUUUAGAAGCUCCCUGAAAUCAGUUAGCAUCCUAAUACGAGUCAGAUGCUGCAGA: 0.481
CUAAAGGAUUUUUCUACCUUGAGAUCUCCCGAGAAAUGAAAACUCAGGCAGUUUAGUCCAUAGUAGUACUAUUUUGAUGAUAUUUUCCAUUAACAAAAUGUAAUUUCAGA: 0.323
AAAUAUGAUGCUGGCAUGGCAAUCAGACCAAAGCACUGUCCCCAAUUGUUGUCUUAACUAUGACUAGACAUGUUAUACAGCCAUUUAUCUUGUACAACUGAGAAGAAUCA: 1.28
